Measurements from different studies.
Every numbered part comes from another study and shows a few of its results, in no order. Substitutions count along the parent as printed.

Set 1
Target: CCND3, cyclin fold, Cln2 fusion (human)
Method: yeast growth competition, sequencing
Sample: yeast
Setting: weak parent motif
Relative to: not given
Direction: higher = stronger binding
Parent: DBF4 docking peptide (human); DDIVSKLVFDFVE
Under “normalised enrichment score”, `DDIASKLVFDFVE [V4A]` is recorded as -0.256.
`DDIVSKLVFDAVE [F11A]` — result for “normalised enrichment score”: -0.334.
`DDAVSKLVFDFVE [I3A]` — result for “normalised enrichment score”: -0.301.
`DDIVSKLVFDFVA [E13A]`: “normalised enrichment score” -0.317.
`DDIVSALVFDFVE [K6A]`: “normalised enrichment score” -0.366.
`DDIVAKLVFDFVE [S5A]`: “normalised enrichment score” -0.414.
Under “normalised enrichment score”, `DDIVSKLVFDFAE [V12A]` is recorded as -0.593.

Set 2
Target: RING finger protein unkempt homolog, zinc fingers 1-6, GST-SBP tag (UNK, Homo sapiens, UniProt Q9C0B0, residues 30-357)
Method: RNA Bind-n-Seq
Form: RNA
Sample: in vitro
Tested at: not given
Setting: RNA with constant flanks, human-mouse chimeric sites, ends assumed
Relative to: input RNA pool
Direction: higher = stronger binding
Construct (chain): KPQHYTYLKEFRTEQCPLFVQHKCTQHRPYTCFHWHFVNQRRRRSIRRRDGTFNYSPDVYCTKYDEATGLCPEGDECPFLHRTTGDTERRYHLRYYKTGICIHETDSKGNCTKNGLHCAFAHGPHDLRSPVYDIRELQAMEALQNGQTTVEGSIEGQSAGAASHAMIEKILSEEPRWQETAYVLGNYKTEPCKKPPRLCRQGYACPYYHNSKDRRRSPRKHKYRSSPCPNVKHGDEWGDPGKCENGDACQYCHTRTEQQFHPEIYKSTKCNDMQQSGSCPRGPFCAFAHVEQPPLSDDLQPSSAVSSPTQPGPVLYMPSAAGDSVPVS
`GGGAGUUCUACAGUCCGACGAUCCUGGCACUCUAUCAGAUAUAUUAAUUUUUAAAUGUAGAUGUAAUUUUAAAAAUGAAUGGCUACUUUACACGUUUAACUAGGCUCUUACUAUAUAUGUGUACAUAUGUAUAUAUAUAUAUACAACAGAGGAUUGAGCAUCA` gave a bound/input enrichment of 7.51 ratio.
The bound/input enrichment of `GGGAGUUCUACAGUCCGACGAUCGAUCAUGAACCACCAUCAGAAAUGAAGAUGAGAUUACCCAGACGAGCCAAAACAGCUGCGCUACAGAAAAAGUAAACUUAACCUUGCGAGUUCCUUAAUGAAGAUACAAGUUAAGAGAGCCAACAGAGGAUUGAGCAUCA` is reported as 0.166 ratio.
`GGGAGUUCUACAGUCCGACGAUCUGUAGUUUCUUGAUUUAUCAUUUUUCUCUUUUCUUUCUUUCCUUUAGGAAAAGCCUAAAGAUUAGGUUGUAAGAAAAACAGAAGCCAUGUUUCGAAGGAAGACCUGUCAGGUAUUUCGUCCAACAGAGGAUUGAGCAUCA` gave a bound/input enrichment of 0.133 ratio.
`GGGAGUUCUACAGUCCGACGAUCCCCACGCCUCCUCUCCCACAGGCCCAAGAUAUAACCCACCAGUGCCUUUUGUCUUCCUGUCAGCUCUGUCAAUCACGGCCCUGCCUUCACGCCCACACCAAGUGCCCAAAGUGGGGAGGGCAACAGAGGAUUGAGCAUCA` gave a bound/input enrichment of 0.577 ratio.
`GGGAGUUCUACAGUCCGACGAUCAUCAAAUACUUUGGGGACAUCAUUAGUGUGGGACAGAGAUUGUUGCAAGGAGCUCGGAUCUUAGGGAUUCCAGUUAUCAUAACGGAACAAUACCCCAAAGGACUUGGGAGCACGGUUCAACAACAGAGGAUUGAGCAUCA` gave a bound/input enrichment of 0.236 ratio.
`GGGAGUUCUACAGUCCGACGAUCCGGAGCCCUCCUCUCCCACAGGCCCAAGAUAUAACCCACCAGUGCCUUUUGUCUUCCUGUCAGCUCUGUCAAUCACGCCUGUCCUCUGUCCCUCUCACCAAGUGCCCCCACCCCUAAGGGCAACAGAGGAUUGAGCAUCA` has a bound/input enrichment of 0.343 ratio.
For `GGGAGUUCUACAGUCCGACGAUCGUUGCCAGCUUCCGGUUCCGUUGGGCUAGCAAGCUCCCUGAGCUACGUGUCUCUACGCUCUCAAUCCCGGUUGGGUAAAACAUGGAUCAGGUAAUGCAGUUUGUGGAGCCCAGCCGGCAGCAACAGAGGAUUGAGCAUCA`, the bound/input enrichment was 0.0734 ratio.
`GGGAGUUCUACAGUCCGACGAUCUAAAUCCUGUGCCAGCACUUCGCUCAUUAUAUUUUAAAUUCUGGACCAAUAGUGUUUGUUUCCUGAUUAUUGUAUCCAAUACUUUGCCUAGUAUGUAACUCACUCUUACUGAUAAUAAAACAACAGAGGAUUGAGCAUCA` has a bound/input enrichment of 2.62 ratio.

Set 3
Target: ABI1, truncated, D143A, DHFR fusion (Arabidopsis thaliana)
Method: DHFR PCA, deep sequencing
Sample: yeast
Setting: methotrexate growth selection, single substitutions
With: (+)-ABA 0 µM
Relative to: wild-type fitted maximum
Direction: higher = stronger binding
Parent: PYL1, truncated, DHFR fusion (Arabidopsis thaliana); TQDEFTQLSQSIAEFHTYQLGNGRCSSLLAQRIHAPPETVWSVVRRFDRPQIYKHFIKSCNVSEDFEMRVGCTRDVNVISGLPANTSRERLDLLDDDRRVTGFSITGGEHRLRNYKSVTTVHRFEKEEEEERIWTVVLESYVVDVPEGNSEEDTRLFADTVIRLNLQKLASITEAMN; partner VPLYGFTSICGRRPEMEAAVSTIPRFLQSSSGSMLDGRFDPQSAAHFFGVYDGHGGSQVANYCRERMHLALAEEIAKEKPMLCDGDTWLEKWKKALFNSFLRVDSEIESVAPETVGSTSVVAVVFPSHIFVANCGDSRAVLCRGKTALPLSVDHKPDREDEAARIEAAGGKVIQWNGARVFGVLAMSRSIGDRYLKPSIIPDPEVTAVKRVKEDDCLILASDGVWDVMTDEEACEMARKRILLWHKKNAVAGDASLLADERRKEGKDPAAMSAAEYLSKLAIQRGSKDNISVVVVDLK
For `D97P`, “relative binding score” read -4.32%.
`I57H` — result for “relative binding score”: -0.748%.
`N149S`: “relative binding score” 61.6%.
`N61V`: “relative binding score” 49.6%.
`G107I` — result for “relative binding score”: -5.24%.
For `Q7F`, “relative binding score” read 22.2%.
`D65T` — result for “relative binding score”: 5.16%.
For `S87D`, “relative binding score” read -1.01%.
`L169V`: “relative binding score” 1.48%.
`R24D` — result for “relative binding score”: -0.597%.
For `R99W`, “relative binding score” read 62.6%.
For `G148V`, “relative binding score” read 2.11%.
For `R88I`, “relative binding score” read 29.4%.
`L8P` — result for “relative binding score”: 0.0622%.

Set 4
Target: RNA binding protein fox-1 homolog 2, RRM domain, GST-SBP tag (RBFOX2, Homo sapiens, UniProt O43251-10, residues 100-194)
Method: RNA Bind-n-Seq
Form: RNA
Sample: in vitro
Tested at: 365 nM
Setting: natural RNA segment, single round, ends assumed
Relative to: no-protein control
Direction: higher = stronger binding
Target sequence (chain): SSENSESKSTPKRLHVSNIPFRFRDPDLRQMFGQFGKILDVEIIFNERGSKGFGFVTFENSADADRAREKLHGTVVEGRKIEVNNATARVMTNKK
Under “RBNS enrichment (R)”, `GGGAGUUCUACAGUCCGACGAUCCAUUGCCUCUCAGCAUUCCGGCCUAAGUUGCGCCCUCCCAGUAUCAGCUCUGAAAGUCUAGGAAUAGUCUUUGUAACAUCUUAGCAGAUGUGUCCUUGUAUGCUGGUGGAUGGAAUUCUCGGGUGCCAA` is recorded as 0.338.
`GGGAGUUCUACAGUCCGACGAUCAUGUGGCUCAGCAGCAAGAAAGGCAAGUUGCUCCUGCUGGGGCCCUGGACUCUGCCUUAGCUCCCACCUCUCAGCCUUGUUAUUGGGUUUCAUGCCCCUGGACCAGCCUUUGGAAUUCUCGGGUGCCAA`: “RBNS enrichment (R)” 0.854.
`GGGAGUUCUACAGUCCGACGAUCUACACGUACAAGCGCCUGUGCUAACGGAGCUGGGACUCGGGACUCCCCCGCCUGUCAGUCUGGCCCCCUGUGCUUUGCUCCCUGUGCUCAGUGGUCACUUUCCCGCUCCCUGGAAUUCUCGGGUGCCAA`: “RBNS enrichment (R)” 1.44.
For `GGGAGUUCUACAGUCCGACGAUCGAGUUAGCAUCUUUAUUUUUGUAUCAAAGAUAAAGGUUAUUUUGAAAAUUAUUAGGGUUUUUACAUAACUCUGGAAUCUGUUGCUUUUAUAAACAAAUUGUUCAAUUUUAUGGAAUUCUCGGGUGCCAA`, “RBNS enrichment (R)” read 0.907.
`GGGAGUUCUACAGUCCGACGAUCGCUUAGGACACACAGAUAAAGUAGAGCUGAAACACGGGCCAAAACAUCCCCAGACAAGGAUGGCACAAGAGGCCAAAUUUGAAGGCCUUGGGAGAGAAGCCAUUUCCCCUUGGAAUUCUCGGGUGCCAA` — result for “RBNS enrichment (R)”: 0.497.
Under “RBNS enrichment (R)”, `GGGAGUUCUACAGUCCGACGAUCCCUGUUAGAGUUGCUUCUCCUCUAGUUUGUAACUUACUGGACUUUUGUGGAAAAUAUCAGCGUCGCUACCCUCAGAAACAAACUAACAGCACACGUUAGGAGGAGUCCUCUGGAAUUCUCGGGUGCCAA` is recorded as 0.455.
Under “RBNS enrichment (R)”, `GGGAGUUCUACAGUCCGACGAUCUCCUGUUUGGUUUUGGGAGGCAGGAAAAAAUCAAAACACAACACAACCAUUUCCUCUAUGUCCUGAGCUGGGACCUGCUGUCCUAAUGCUAAGGAUGAGGGCUGUCAAACUGGAAUUCUCGGGUGCCAA` is recorded as 0.337.
`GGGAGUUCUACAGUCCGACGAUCUUGAACCUAACCUGCAUCCCAUUUCCAGCCUCUUUUCAAGCUGAGAAAAAAACAAAAAACACGUUUGAUACUUUGUACAUCAUAUGCAUCUUAUUUAAAGGGAUACUUUUUGGAAUUCUCGGGUGCCAA`: “RBNS enrichment (R)” 0.885.

Further values, each from its own experiment
For `PhoQ, residues 284 288 289 292 302 303 SQSLSM`, the fold induction was 8.01 (PhoP, residues 12 14 15 18 19 GHCSL (Escherichia coli, UniProt P23836); Sort-seq, item: YFP reporter; E. coli; PhoQ-PhoP variant library, with: 10 µM Mg2+; relative to: high Mg2+ state, higher = stronger signaling).

Excerpt of the above (set 3):
`N61V`: “relative binding score” 49.6%.
`G107I` — result for “relative binding score”: -5.24%.
For `Q7F`, “relative binding score” read 22.2%.
`D65T` — result for “relative binding score”: 5.16%.
